Results from different studies.
Compare with care: the assays were run in different laboratories. Several values in a cell are separate wells, animals, samples, runs or records. Numbers after ± are the reported error.

Structure (SMILES) | test | test system | setting | how to read | endpoint | result
C[C@]1(CO)Cc2ncn(-c3ccc(C#N)c(Cl)c3)c2C(=O)O1 | – | human | 80 mg single dose | – | subjects with severe TEAEs | 0%
CN1CC[C@@H](c2c(O)cc(O)c3c(=O)cc(-c4ccc(C(F)(F)F)cc4Cl)oc23)[C@@H]1CO | refers to: Pyrexia | B-cell malignancies | oral, 200 mg, intermittent dosing | – | patients with adverse event | 0%
CC[C@H](C)[C@H](NC(=O)[C@H](CCCCN)NC(=O)[C@H](CCC(=O)O)NC(=O)[C@H](CCCCN)NC(=O)[C@H](CO)NC(=O)[C@H](CCCCN)NC(=O)[C@H](CCCNC(=N)N)NC(=O)[C@H](Cc1ccccc1)NC(=O)[C@H](Cc1ccccc1)NC(=O)[C@H](CC(=O)O)NC(=O)CNC(=O)[C@H](CC(C)C)NC(=O)[C@@H](N)CC(C)C)C(=O)NCC(=O)N[C@@H](CCCCN)C(=O)N[C@@H](CCC(=O)O)C(=O)N[C@@H](Cc1ccccc1)C(=O)N[C@@H](CCCCN)C(=O)N[C@@H](CCCNC(=N)N)C(=O)N[C@H](C(=O)N[C@H](C(=O)N[C@@H](CCC(N)=O)C(=O)N[C@@H](CCCNC(=N)N)C(=O)N[C@H](C(=O)N[C@@H](CCCCN)C(=O)N[C@@H](CC(=O)O)C(=O)N[C@@H](Cc1ccccc1)C(=O)N[C@@H](CC(C)C)C(=O)N[C@@H](CCCNC(=N)N)C(=O)N[C@@H](CC(N)=O)C(=O)N[C@@H](CC(C)C)C(=O)N[C@H](C(=O)N1CCC[C@H]1C(=O)N[C@@H](CCCNC(=N)N)C(=O)N[C@H](C(=O)N[C@@H](CCC(=O)O)C(=O)N[C@@H](CO)C(=O)O)[C@@H](C)O)C(C)C)[C@@H](C)CC)C(C)C)[C@@H](C)CC | LC-MS | buffer with human neutrophil elastase | 40 µM, 120 min, pH 7.5, 37 °C | relative to: 0 h | remaining intact peptide | 1.39% and 1.87%
COc1cc2c(Oc3ccc4[nH]c(C)cc4c3F)ccnc2cc1OCC1(N)CC1 | – | paediatric recurrent refractory sarcoma | 10 mg | – | grade 1 or 2 Vomiting | 50%
CCCCCCCCCCCCCCCC(=O)N[C@@H](CCC(=O)NCCCC[C@H](NC(=O)[C@H](CC(=O)O)NC(=O)[C@H](CO)NC(=O)[C@@H](NC(=O)[C@H](Cc1ccccc1)NC(=O)[C@@H](NC(=O)CNC(=O)[C@H](CCC(N)=O)NC(=O)[C@H](CO)NC(=O)[C@@H](N)Cc1c[nH]cn1)[C@@H](C)O)[C@@H](C)O)C(=O)N[C@@H](CO)C(=O)N[C@@H](CCC(=O)O)C(=O)N[C@@H](Cc1ccc(O)cc1)C(=O)N[C@@H](CC(C)C)C(=O)N[C@@H](CC(=O)O)C(=O)N[C@@H](CO)C(=O)N[C@@H](CCC(=O)O)C(=O)N[C@@H](CCCNC(=N)N)C(=O)N[C@@H](C)C(=O)N[C@@H](CCCNC(=N)N)C(=O)N[C@@H](CC(=O)O)C(=O)N[C@@H](Cc1ccccc1)C(=O)N[C@H](C(=O)N[C@@H](C)C(=O)N[C@@H](Cc1c[nH]c2ccccc12)C(=O)N[C@@H](CC(C)C)C(=O)N[C@@H](CCC(=O)O)C(=O)N[C@@H](C)C(=O)NCC(=O)NCC(=O)O)C(C)C)C(=O)O | refers to: Nausea | humans all renal groups | subcutaneous, 100 µg single dose | – | treatment-related adverse events | 32.4%
CO[C@H]1C[C@@H]2CC[C@@H](C)[C@@](O)(O2)C(=O)C(=O)N2CCCC[C@H]2C(=O)O[C@H]([C@H](C)C[C@@H]2CC[C@@H](OC(=O)NCCOCCOCCOCCOCCOCCOCCOCCOCCC(=O)N3CCc4cc(Cn5nc(-c6ccc7oc(N)nc7c6)c6c(N)ncnc65)ccc4C3)[C@H](OC)C2)C[C@@H](O)[C@H](C)/C=C(\C)[C@@H](O)[C@@H](OC)C(=O)[C@H](C)C[C@H](C)/C=C/C=C/C=C/1C | – | patients with advanced solid tumours | intravenous, dose not given, any grade | – | incidence of Diarrhea TRAE | 17.5%
O=C(c1ccc(F)c(F)c1Nc1ccc(I)cc1F)N1CC(O)([C@@H]2CCCCN2)C1 | – | human patients | oral, dose not given, dose escalation, suspension | – | treatment-related AE causing dose modification | 31%
Clc1ccc(-c2ccccc2)cc1 | – | female Sprague-Dawley rats, serum | inhalation, 23 µg/rat, 1 h after exposure | – | blood urea nitrogen | 17 ± 2 mg/dL
CC(=O)c1c(C)c2cnc(Nc3ccc(C4CCN(CCS(C)(=O)=O)CC4)cn3)nc2n(C2CCCC2)c1=O | – | human, plasma | oral, 25 mg, day 1 single dose | – | Tmax | 1.33 h
Cn1cccc1-c1cccnc1 | – | rat | intravenous, 1.0 mg/kg, given alone | – | elimination rate constant | 1.34 h⁻¹
[O-][S+]1CCc2nc(N3CCC(c4ncc(Cl)cn4)CC3)nc(NC3(CO)CCC3)c21 (stereo not drawn) | refers to: oral hypoaesthesia | healthy male humans | 6 mg twice daily | – | adverse event incidence | 0%
CC(C)C(=O)OC[C@H]1O[C@@H](n2ccc(NO)nc2=O)[C@H](O)[C@@H]1O | – | rat amniotic fluid dialysate | 250 ng/mL, high concentration, three cycles, together with: NHC 1000 ng/mL | – | freeze-thaw stability | 97.7 ± 1.14%
Cc1cc(C)c(CNC(=O)c2cc(Cl)c3c(c2C)O[C@@](C)([C@H]2CC[C@H](N(C)C)CC2)O3)c(=O)[nH]1 | – | relapsed/refractory NHL patients | dose not given, trial, safety set, all TEAEs grade 5 | – | incidence of tumour-associated fever | 0%
O=C(O)C(O)(c1cccs1)c1cccs1 | refers to: metabolite | human, plasma | oral, 2 mg once daily, 5 days, median | – | dose-normalised free AUC(0-24) | 0.213 (ng·h/mL)/mg
O=C1Nc2cc3[nH]nc(-c4ccncc4)c3cc2CN1Cc1ccccc1 | refers to: vitreous floaters | patients with advanced solid tumours | intravenous, dose not given | – | patients with TEAE | 11%
O=S(=O)(Nc1ccccc1)c1ccc(NC(=S)Nc2ccccc2)cc1 | – | mouse, male, large intestine | oral, 20 mg/kg daily, 14 days | relative to: body weight | relative organ weight | 0.95%
C[C@@H](NC(=O)N1C(=O)[C@H](Cc2ccnc(N)c2)[C@H]1C(=O)O)C1CCCCC1 | – | healthy adult Chinese volunteers | continuous intravenous infusion, 1.5 mg/kg/h, 5-day infusion, CTCAE 5.0 grading | – | incidence of elevated blood uric acid | 0%
CCc1ccc(CC/C=C/c2ccc3c(c2)C(=O)CC3)cc1 | – | Sprague-Dawley rat, female, blood | oral, 450 mg/kg/day, 14 days | – | prothrombin time | 12.2 s
CC(C)(C)c1cc(-n2nc3ccccc3n2)c(O)c(C(C)(C)C)c1 | exposure assessment | human, age 16-21 years | spray sunscreen | – | mean daily dermal uptake | 3.66 ng/kg body weight/day
NCCCC[C@@H]1NC(=O)[C@@H](Cc2c[nH]c3ccccc23)NC(=O)[C@H](c2ccccc2)NC(=O)[C@@H]2C[C@@H](OC(=O)NCCN)CN2C(=O)[C@H](Cc2ccccc2)NC(=O)[C@H](Cc2ccc(OCc3ccccc3)cc2)NC1=O | – | healthy volunteers | subcutaneous, 1950 µg twice daily, day 5, 0.50 h | – | QTcI change from baseline | -1.2 ms
COc1ccc(CCC2CCCC(CCc3ccc(OC)cc3)N2C[C@@H](O)CO)cc1.Cl (stereo in doubt) | – | rabbit Purkinje fibres | 0.1 µM, cycle length 0.5 s | relative to: baseline | Vmax change | 1.2 ± 4.7%
COc1ccnc(C(=O)N[C@H]2COC(=O)[C@H](Cc3ccccc3)[C@@H](OC(=O)C(C)C)[C@H](C)OC2=O)c1OCOC(=O)C(C)C | soil adsorption | soil | pH 5.9, organic carbon 0.9 % | – | Freundlich coefficient KF | 20.3 mL/g
CCCCCOc1ccc(-c2ccc(-c3ccc(C(=O)N[C@H]4C[C@@H](O)[C@@H](OCC[N+](C)(C)C)NC(=O)[C@@H]5[C@@H](O)[C@@H](C)CN5C(=O)[C@H]([C@@H](C)O)NC(=O)[C@H]([C@H](O)[C@@H](O)c5ccc(O)cc5)NC(=O)[C@@H]5C[C@@H](O)CN5C(=O)[C@H]([C@@H](C)O)NC4=O)cc3)cc2)cc1 | – | adult ICU patients, mITT, serum | dose not given, EOT | – | albumin | 29.2 g/L
O=C(Nc1ccccc1)C1CCN(C(=O)Oc2cccnc2)CC1 | – | healthy women | oral, 60 mg, 7 days | – | Gastrointestinal disorders adverse events | 0%
Cc1ccc(F)c2cc(C(=O)N[C@@H]3CCC[C@H](N4CC[C@H](N(C)S(C)(=O)=O)C4)C3)[nH]c12 | – | CD1 mouse, plasma | oral, 30 mg/kg, 0.25 h | – | plasma concentration | 523 ng/mL
CC(C)[C@@H]1NC(=O)CNC(=O)[C@H](CC(N)=O)NC(=O)[C@H](CCCNC(=N)N)NC(=O)[C@H](Cc2ccc(O)cc2)NC(=O)[C@H](C(C)C)NC(=O)[C@@H](NC(=O)[C@@H](NC(=O)[C@H](CC(N)=O)NC(=O)[C@H](Cc2c[nH]c3ccccc23)NC(=O)[C@H](C)NC(=O)[C@H](Cc2ccccc2)NC(=O)CN)C(C)C)CSSC[C@@H](C(=O)N[C@@H](Cc2cnc[nH]2)C(=O)N[C@@H](CCCNC(=N)N)C(=O)N[C@@H](CCCNC(=N)N)C(=O)N[C@@H](C)C(=O)N[C@@H](CC(N)=O)C(N)=O)NC(=O)[C@H](C(C)C)NC(=O)[C@H](CCCNC(=N)N)NC1=O | – | ICR mice, serum | intraperitoneal, 5 mg/kg, day 5 | – | AST | 24.6 ± 0.6 IU/L
O=C(O)CNCP(=O)(O)O | ultrafiltration | cow milk whey | 2000 nM nominal in whole milk | – | dose fraction in permeate | 58.1%
